# Measured values pooled from the literature.
# Parts stem from different laboratories: compare values within a part only. Substitutions count along the parent as printed.
# UniProt Q9Y243, sequence (whole entry, looked up): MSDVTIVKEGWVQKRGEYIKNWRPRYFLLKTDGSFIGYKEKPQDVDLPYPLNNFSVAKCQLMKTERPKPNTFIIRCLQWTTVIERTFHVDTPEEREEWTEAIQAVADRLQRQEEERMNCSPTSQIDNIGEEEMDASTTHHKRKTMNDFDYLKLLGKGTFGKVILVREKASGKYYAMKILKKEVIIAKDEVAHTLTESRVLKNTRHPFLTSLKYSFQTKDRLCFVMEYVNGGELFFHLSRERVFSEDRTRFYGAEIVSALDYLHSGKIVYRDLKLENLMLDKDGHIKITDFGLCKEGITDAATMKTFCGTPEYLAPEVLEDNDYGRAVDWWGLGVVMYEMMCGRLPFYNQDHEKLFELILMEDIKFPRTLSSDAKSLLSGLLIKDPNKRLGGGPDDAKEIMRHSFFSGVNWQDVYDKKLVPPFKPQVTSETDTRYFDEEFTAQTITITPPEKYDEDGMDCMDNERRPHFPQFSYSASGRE

# Set 1
# Target: Ras GTPase-activating protein-binding protein 1, RRM domain (G3BP1, Homo sapiens, UniProt Q13283)
# UniProt Q13283, sequence (whole entry, looked up): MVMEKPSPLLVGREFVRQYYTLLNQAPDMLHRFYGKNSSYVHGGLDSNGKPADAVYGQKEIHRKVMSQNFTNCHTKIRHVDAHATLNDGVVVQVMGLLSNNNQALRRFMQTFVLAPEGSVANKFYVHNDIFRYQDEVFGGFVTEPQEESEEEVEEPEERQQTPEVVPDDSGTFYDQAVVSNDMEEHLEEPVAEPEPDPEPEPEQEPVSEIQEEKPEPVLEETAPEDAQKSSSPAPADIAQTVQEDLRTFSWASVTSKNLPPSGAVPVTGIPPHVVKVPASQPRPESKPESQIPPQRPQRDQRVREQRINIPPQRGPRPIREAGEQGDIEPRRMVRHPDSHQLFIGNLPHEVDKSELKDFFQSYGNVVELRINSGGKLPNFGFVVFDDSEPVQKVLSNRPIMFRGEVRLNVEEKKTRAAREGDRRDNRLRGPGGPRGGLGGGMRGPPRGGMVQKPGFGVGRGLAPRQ
# Method: RNA Bind-n-Seq
# Molecule type: RNA
# Sample: in vitro
# Tested at: 1 µM
# Setting: whole 134-nt RNA, ends assumed
# Added: 150 mM KCl
# Relative to: input library
# Direction: higher = stronger binding
# All sequences stand within: GGGAGUUCUACAGUCCGACGAUC … UGGAAUUCUCGGGUGUCAAGG
Strand,log2 enrichment
AAGUCCUGUGCUACACAUCGUAUGUACCGAAUCGGAAAGGGGAAAGGGGAAAGGGGAAAGUAUUAUGUUACGCCGUUCGGAUCUGCACUU,0.285
UCAAGUCCUGUGCUACACAUCGUAUGUACCGAAUCGGGUUUGGGUGGGAAAGGGAAAGUAUUAUGUUACGCCGUUCGGAUCUGCACUUCC,0.689
ACCAUGCAGGUGGGCAUCUUUGGGAAGUGGGGCAAGGGGGGGAUAGGGAGGGGGGUAACACUUUGGGAACAGGUCGUCCCAGGUCGUUUC,0.776
CGGUCAGACUUUGUGUUACAUAAAUUAACACUGUUCUCAGGUAAUGAGAGAUCCAAACACCAAGCGCUCCAGGGGCUUUGGGUUUGUCAC,-0.187
GUCCUGUGCUACACAUCGUAUGUACCGAAUCGGGGCCCCCGGGGCCCCCGGCCCCCGGGAAAGUAUUAUGUUACGCCGUUCGGAUCUGCA,-0.522
GUCCUGUGCUACACAUCGUAUGUACCGAAUCGGUUUUUUGGGUUUUUUGGUUUUUUGGGAAAGUAUUAUGUUACGCCGUUCGGAUCUGCA,-0.192
CCUGUGCUACACAUCGUAUGUACCGAAUCGGGAAAAAAAGGAAAAAAAGGGGAAAAAAAGGAAAGUAUUAUGUUACGCCGUUCGGAUCUG,0.0209
UGUGCUACACAUCGUAUGUACCGAAUCGGGUUUUUUUGGGUUUUUUUGGGGUUUUUUUGGGGAAAGUAUUAUGUUACGCCGUUCGGAUCU,0.00269

# Set 2
# Target: CEP164, C-terminal peptide (human)
# Method: DHFR complementation, deep sequencing
# Sample: yeast
# Setting: single substitutions, model-inferred values
# Relative to: wild type
# Direction: higher = weaker binding
# Starting sequence: PDZK1, PDZ domain 2 (human); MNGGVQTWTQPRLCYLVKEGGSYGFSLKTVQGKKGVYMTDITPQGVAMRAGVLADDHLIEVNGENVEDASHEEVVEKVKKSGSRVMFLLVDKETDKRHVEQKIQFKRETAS; partner HNRVKVYRF
Substitution,binding free energy change
A69L,-0.437 kcal/mol
T39G,0.589 kcal/mol
V5Q,0.0205 kcal/mol
A110V,-0.0915 kcal/mol
R49Y,0.33 kcal/mol
N62L,1.19 kcal/mol
G32I,0.923 kcal/mol
V74I,-0.0704 kcal/mol

# Set 3
# Target: CREB3L1, bZIP domain (human)
# Method: DHFR protein complementation
# Sample: yeast
# Setting: single substitutions, most at no-binding floor
# Relative to: wild-type JUN-FOS pair
# Direction: higher = stronger binding
# Starting sequence: JUN, bZIP domain (human); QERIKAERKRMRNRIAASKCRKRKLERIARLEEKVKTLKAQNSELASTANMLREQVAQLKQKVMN; partner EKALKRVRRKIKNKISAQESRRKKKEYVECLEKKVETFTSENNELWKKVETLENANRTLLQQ
Substitution,binding fitness [natural log]
L45G,-1.51
Q55M,-1.14
L31R,-1.44
L59T,-1.43
E33I,-1.42
R30N,-1.53
Q55I,-1.32
R53Q,-1.41

# Single results of other studies
Compound,target,test,setting,how to read,measurement,result
c1ccc(-c2[nH]ncc2-c2ccnc3ccccc23)nc1,"RAC-gamma serine/threonine-protein kinase (AKT3, Homo sapiens, UniProt Q9Y243)","enzyme activity, inhibitor",0.5 µM,relative to: control,remaining activity,92.6%
